Measurements of several laboratories.
A part holds a random share of what one study measured.

Sample 1
Target: Fragile X messenger ribonucleoprotein 1, C-terminal low-complexity region (Fmr1, Mus musculus, UniProt P35922)
Method: RNA Bind-n-Seq
Form: RNA
Matrix: in vitro
Tested at: 200 nM
Notes: whole 134-nt RNA, ends assumed
Together with: 150 mM KCl
Baseline: input library
Reading: higher = stronger binding
With `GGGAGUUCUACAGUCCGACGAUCCAAGUCCUGUGCUACACAUCGUAUGUACCGAAUCGGAAAAAGGAAAAAGGAAAGGAAAGUAUUAUGUUACGCCGUUCGGAUCUGCACUUCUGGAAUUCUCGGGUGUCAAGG` the log2 enrichment was -0.89.
`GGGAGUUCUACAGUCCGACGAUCUAACUUUAGAGGAGGAUCUGAUGGAUAUGGCAGUGGACGUGGAUUUGGGGAUGGCUGUAAUGGGUAUGGAGGAGGACCUGGAGGUGGCAAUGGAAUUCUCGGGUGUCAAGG` gave a log2 enrichment of 0.225.
With `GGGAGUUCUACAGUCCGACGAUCCAAGUCCUGUGCUACACAUCGUAUGUACCGAAUCGGGGAAGGGGAAGGGAAGGGGAAAGUAUUAUGUUACGCCGUUCGGAUCUGCACUUCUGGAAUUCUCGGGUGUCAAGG` the log2 enrichment was 0.782.
The log2 enrichment of `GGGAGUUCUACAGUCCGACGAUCAGUCCUGUGCUACACAUCGUAUGUACCGAAUCGGUUUUUGGGUUUUUGGGUUUUUGGAAAGUAUUAUGUUACGCCGUUCGGAUCUGCACUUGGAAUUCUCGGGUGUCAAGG` is reported as -0.473.
`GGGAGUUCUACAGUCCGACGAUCGCAGGAAGUAAAAACAAAAAGAAAUGCUUCGGAUAGUGGCAGGGGUGGGGGUUGCUAAGGAAAGGGUGGGAUGGGAGUGGGUAAAGAGUUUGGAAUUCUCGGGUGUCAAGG` has a log2 enrichment of 0.559.
`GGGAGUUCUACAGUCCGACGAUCUGGCCCUGGUGGCAUGCGGGGACGAAGAGGUGGCCUCAUGGAUCGUGGUGGUCCCGGUGGAAUGUUCAGAGGUGGCCGUGGUGGAGACAGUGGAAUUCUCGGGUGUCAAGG` has a log2 enrichment of -0.0732.
For `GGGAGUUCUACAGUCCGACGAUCGCAGGAAGUAAAAACAAAUGGAAAUGCUUCGGAUAGUGGCAGGGGUGGGGGUUGCUAAGGAAAGGGUGGGAUGGGAGUGGGUAAAUAGUUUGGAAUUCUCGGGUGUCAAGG`, the log2 enrichment was -0.167.
With `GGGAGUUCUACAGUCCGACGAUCUCCUCAAGUCCUGUGCUACACAUCGUAUGUACCGAAUCGGAGGAAAGGAGGAAAGUAUUAUGUUACGCCGUUCGGAUCUGCACUUCCAGCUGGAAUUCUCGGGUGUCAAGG` the log2 enrichment was -0.563.

Sample 2
Target: Sal-like protein 4, full length isoform B (SALL4, Homo sapiens, UniProt Q9UJQ4-2, residues 1-616)
Method: universal PBM
Form: double-stranded DNA, one strand shown
Matrix: in vitro
Tested at: not given
Notes: 8-mer, flanks averaged, mean of replicates
Reading: higher = stronger binding
`ACGACCCA` gave an E-score of -0.105.
The E-score of `ATTATACG` is reported as 0.281.
`AAAGGACG` has an E-score of 0.0402.
For `ACGGTTTG`, the E-score was -0.2.
`AACCCGTG` gave an E-score of -0.268.
`AGATACTC` has an E-score of 0.0899.
`CAATACTG` gave an E-score of 0.0963.
With `GATTGAGA` the E-score was 0.0966.

Sample 3
Target: RING finger protein unkempt homolog, zinc fingers 1-6, GST-SBP tag (UNK, Homo sapiens, UniProt Q9C0B0, residues 30-357)
Method: RNA Bind-n-Seq
Form: RNA
Matrix: in vitro
Tested at: not given
Notes: RNA with constant flanks, human-mouse chimeric sites, ends assumed
Baseline: input RNA pool
Reading: higher = stronger binding
Target sequence (chain): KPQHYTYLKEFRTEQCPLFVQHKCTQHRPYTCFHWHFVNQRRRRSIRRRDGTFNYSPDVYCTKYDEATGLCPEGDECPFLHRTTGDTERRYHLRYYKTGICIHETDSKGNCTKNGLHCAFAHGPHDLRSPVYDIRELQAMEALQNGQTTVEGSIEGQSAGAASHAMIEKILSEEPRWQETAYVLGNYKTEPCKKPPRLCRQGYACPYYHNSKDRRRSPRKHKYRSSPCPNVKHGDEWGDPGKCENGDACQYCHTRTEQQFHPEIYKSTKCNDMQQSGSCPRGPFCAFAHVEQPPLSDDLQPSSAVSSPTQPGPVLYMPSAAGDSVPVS
`GGGAGUUCUACAGUCCGACGAUCUAAAUUAGGGCUGCCGUUUUCUGUUUCUCCCUGGGCUGCGGAAAGCCAGGCGGUUUUAUCUAGCUUAUACAAGGCUGCUGGUGUUCCCUCUUUUUUUCCCUCUCUCUGUUUUUGGCUGCACAACAGAGGAUUGAGCAUCA` gave a bound/input enrichment of 5.47 ratio.
`GGGAGUUCUACAGUCCGACGAUCAGGAGGAGGUUAAAGGGUGAAAAUGGGGUGGAAGACUGUGUCAUGGCUCUGGAGACACUGUUCAGUGUUCUGCUUUCUCUGUGCAGACUGAUGGCCCCUUACACGCCCUUUCUGACUGAGCAACAGAGGAUUGAGCAUCA` has a bound/input enrichment of 0.0648 ratio.
The bound/input enrichment of `GGGAGUUCUACAGUCCGACGAUCGUAGCUGGCCAUUAGGAAAUGCUGGUAAUUUCAGUCACUUGCUGAUGACUUCUGAUGUCCCAGCAAAUAAUGCCACAGUUGACUGCUGAGAAGAUACUUCUGAGGACCCACGUCUAAGGUCAACAGAGGAUUGAGCAUCA` is reported as 0.302 ratio.
For `GGGAGUUCUACAGUCCGACGAUCACUCAGAGAUUAUAUUCCCAAAGUGCUCUGGAGCUCUGUGUGGCCACCACACCUAACUUGAUGGAUAUAUAUUUUUUUUAAUAUGAAUCUUCCUGUUCGUCCAGGGAAGAAAGAUUUGUUCAACAGAGGAUUGAGCAUCA`, the bound/input enrichment was 0.941 ratio.

Mixed results
`PhoQ, residues 284 288 289 292 302 303 TVTVVA` has a fold induction of 6.61 (PhoP, residues 12 14 15 18 19 QWHVF (Escherichia coli, UniProt P23836); Sort-seq, refers to: YFP reporter; E. coli; PhoQ-PhoP variant library, together with: 10 µM Mg2+; baseline: high Mg2+ state, higher = stronger signaling).

Excerpt of the above (sample 1):
For `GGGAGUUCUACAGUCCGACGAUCGCAGGAAGUAAAAACAAAUGGAAAUGCUUCGGAUAGUGGCAGGGGUGGGGGUUGCUAAGGAAAGGGUGGGAUGGGAGUGGGUAAAUAGUUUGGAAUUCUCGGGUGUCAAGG`, the log2 enrichment was -0.167.
With `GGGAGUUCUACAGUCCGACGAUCUCCUCAAGUCCUGUGCUACACAUCGUAUGUACCGAAUCGGAGGAAAGGAGGAAAGUAUUAUGUUACGCCGUUCGGAUCUGCACUUCCAGCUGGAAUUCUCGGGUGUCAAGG` the log2 enrichment was -0.563.
